Measurements collected from several papers.
Numbered parts are unrelated; each lists some results of a single study.

Series 1
Target: Interferon regulatory factor 7, full length, phosphomimetic (IRF7, Homo sapiens, UniProt Q92985, residues 1-503, S101K/S471D/S472D/S475D/S476D/S477D/S483D/S484D/S487D)
Chain of UniProt Q92985 (whole entry, unmodified, looked up): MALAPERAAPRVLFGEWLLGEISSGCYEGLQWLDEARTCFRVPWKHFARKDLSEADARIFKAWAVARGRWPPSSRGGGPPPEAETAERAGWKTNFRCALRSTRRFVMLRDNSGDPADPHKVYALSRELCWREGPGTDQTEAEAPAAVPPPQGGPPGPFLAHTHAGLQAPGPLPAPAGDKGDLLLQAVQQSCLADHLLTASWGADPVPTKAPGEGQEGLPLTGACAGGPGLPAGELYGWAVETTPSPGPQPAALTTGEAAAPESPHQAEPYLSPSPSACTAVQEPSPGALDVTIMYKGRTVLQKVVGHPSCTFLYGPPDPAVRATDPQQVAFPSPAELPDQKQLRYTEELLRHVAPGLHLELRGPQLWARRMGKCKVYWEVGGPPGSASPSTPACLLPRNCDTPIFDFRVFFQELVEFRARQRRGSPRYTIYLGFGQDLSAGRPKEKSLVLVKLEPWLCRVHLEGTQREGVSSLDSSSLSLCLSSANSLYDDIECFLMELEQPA
Method: protein-binding microarray
Molecule type: double-stranded DNA, one strand shown
Sample: in vitro
Tested at: 250 nM
Setting: 60-bp whole probe
Added: salmon DNA 0.4 mg/ml
Reference: random background probes
Direction: higher = stronger binding
Constant ends, left off below: GCCTAGCAC … GTCTTGATTCGCTTGACGCTGCTG
| Oligonucleotide | log fluorescence [z-score] |
| --- | --- |
| GACGATATCGGGTAACGAGACGTGCTA | -0.253 |
| GACGTTATCAGACTGGAGACGTGCTAG | 0.0574 |
| ACTGATTTCCACTTTCTTAAGTGCTAG | 1.64 |
| GCCGGTATCCTTTTCCTGACGTGCTAG | 1.21 |
| AGGGCAGGGAGGGGGACAGCGTGCTAG | 2.58 |
| ATAGGACTGCTTATCCTTTAGTGCTAG | 0.189 |
| GACGAACTGGGGTATCGACACGTGCTA | -0.717 |
| TTAGATTTCAGACTGGATTTGTGCTAG | -0.0524 |
| CTTTCTTTGCTTCACCCTGGGTGCTAG | 1.91 |
| GACGATATCATTATCGAGACGTGCTAG | 0.0168 |
| GACGATTTCGGGTTTCGAAACGTGCTA | 6.32 |
| TGACAGCAGGAACATGGGCTGTGCTAG | -0.864 |
| GACGATCGCAGTTTCGAGACGTGCTAG | 3.3 |
| GACGGACTGCTTCTCCAGACGTGCTAG | -0.435 |
| CCACTCTTCCTTTACTTTCTGTGCTAG | 1.1 |
| TTCTACTTCTCTTTTTGCTTGTGCTAG | 1.58 |
| GACGATATCGGGAATCGAGACGTGCTA | 0.32 |
| TTCCCTTTCTCAACCTCCAGGTGCTAG | 3.14 |
| TCAACTCTCAGAATCTCACTGTGCTAG | 0.405 |
| CATGAATCAGGCATAGCATGGTGCTAG | -0.136 |
| GACGATTTCAGTTCCGAGCCGTGCTAG | 0.398 |
| TCATTTTTTTACTTCGGACTGTGCTAG | 0.734 |
| TTAGGACTACTACTGCTTTAGTGCTAG | -0.117 |
| TCACCTTTTTTTTTTTTACTGTGCTAG | 1.17 |
| GACGGAATGCTTCTCCTGACGTGCTAG | -0.506 |

Series 2
Target: Histone acetyltransferase KAT6A, winged helix 1, GST fusion (KAT6A, Homo sapiens, UniProt Q92794, residues 1-85)
Method: protein binding microarray
Molecule type: double-stranded DNA, one strand shown
Sample: in vitro
Tested at: not given
Setting: 8-mer, flanks averaged, mean of 2 arrays, mostly near background
Reference: not given
Direction: higher = stronger binding
Residues (chain): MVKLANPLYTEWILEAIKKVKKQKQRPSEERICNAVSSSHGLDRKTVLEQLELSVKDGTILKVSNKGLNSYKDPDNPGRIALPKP
| Oligonucleotide | E-score |
| --- | --- |
| GAGGTGCC | 0.00927 |
| CACATTTC | -0.103 |
| CTCCTCCC | -0.077 |
| TGACAAAA | -0.183 |
| GGGTTGAC | 0.122 |
| CCACGCGA | 0.00299 |
| CGTGCACA | -0.0684 |
| AGCCAAAA | -0.207 |
| CTTAACGA | -0.0939 |
| ACGGGGCT | 0.157 |
| CTGAGCAG | -0.0378 |
| AATGTGAT | 0.0329 |
| AGAGCCCG | 0.113 |
| GGGTCTTA | 0.0614 |
| GCCAAGAA | -0.0803 |
| AGAATGCG | 0.163 |
| AGTGCCAG | -0.18 |
| AATTTTCT | -0.201 |
| CCCTTACA | -0.0156 |
| ACAAAGAT | -0.202 |
| GAGTTATC | -0.065 |
| AATCCGCG | 0.304 |
| AGAAATTC | -0.107 |
| ACTCACCC | -0.0243 |

Series 3
Target: Ras GTPase-activating protein-binding protein 1, RRM domain (G3BP1, Homo sapiens, UniProt Q13283)
Chain of UniProt Q13283 (whole entry, looked up): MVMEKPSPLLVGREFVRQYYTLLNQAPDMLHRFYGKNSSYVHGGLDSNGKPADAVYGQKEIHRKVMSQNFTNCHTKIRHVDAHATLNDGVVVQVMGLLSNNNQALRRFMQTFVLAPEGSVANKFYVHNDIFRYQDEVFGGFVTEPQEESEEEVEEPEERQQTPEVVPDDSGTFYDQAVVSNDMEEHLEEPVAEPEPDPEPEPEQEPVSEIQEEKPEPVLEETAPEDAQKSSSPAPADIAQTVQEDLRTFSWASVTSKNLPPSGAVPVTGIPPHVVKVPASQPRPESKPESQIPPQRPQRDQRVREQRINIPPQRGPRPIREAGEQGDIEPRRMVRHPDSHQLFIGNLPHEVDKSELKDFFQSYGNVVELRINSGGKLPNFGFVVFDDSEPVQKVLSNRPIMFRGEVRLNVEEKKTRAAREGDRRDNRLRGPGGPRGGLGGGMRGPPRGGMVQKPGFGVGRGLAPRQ
Method: RNA Bind-n-Seq
Molecule type: RNA
Sample: in vitro
Tested at: 1 µM
Setting: whole 134-nt RNA, ends assumed
Added: 150 mM KCl
Reference: input library
Direction: higher = stronger binding
Constant ends, left off below: GGGAGUUCUACAGUCCGACGAUC … UGGAAUUCUCGGGUGUCAAGG
| Oligonucleotide | log2 enrichment |
| --- | --- |
| UGUGCUACACAUCGUAUGUACCGAAUCGGGGCCCCCCCGGGGCCCCCCCGGGCCCCCCCGGGGAAAGUAUUAUGUUACGCCGUUCGGAUC | -0.814 |
| CUGUGCUACACAUCGUAUGUACCGAAUCGGGGUUUUUUUGGUUUUUUUGGUUUUUUUGGGGAAAGUAUUAUGUUACGCCGUUCGGAUCUG | -0.259 |
| UGGCCCUGGUGGCAUGCGGGGAGGAAGAGGUGGCCUCAUGGGUCGUGGUGGUCCCGGUGGAAUGUUCAGAGGUGGCCGUGGUGGAGACAG | 0.847 |
| CCUCAAGUCCUGUGCUACACAUCGUAUGUACCGAAUCGGGCCGGCCGGGCCGGAAAGUAUUAUGUUACGCCGUUCGGAUCUGCACUUCCA | -0.445 |
| GUCCUGUGCUACACAUCGUAUGUACCGAAUCGGUUUUUUUGGAAAAAAAGGUUUUUGGAAAGUAUUAUGUUACGCCGUUCGGAUCUGCAC | -0.508 |
| CUCAAGUCCUGUGCUACACAUCGUAUGUACCGAAUCGGGUGGGUGGGAAAGGGAAAGUAUUAUGUUACGCCGUUCGGAUCUGCACUUCCA | 0.811 |
| AAGUCCUGUGCUACACAUCGUAUGUACCGAAUCGGCCCCGGGGCCCCGGCCCCGGGAAAGUAUUAUGUUACGCCGUUCGGAUCUGCACUU | -0.707 |
| UCAAGUCCUGUGCUACACAUCGUAUGUACCGAAUCGGGUGGGUUUUUGGGAGGGAAAGUAUUAUGUUACGCCGUUCGGAUCUGCACUUCC | 0.517 |
| GGACACAGCUUGGGCUAUGGCUUUGUGAACUACGUGACCGCGAAGGAUGCAGAGAGAGCGAUCAACACGCUGAACGGCUUGAGGCUCCAG | -0.544 |
| UUGAGAAGAAGCAAAAAGAGAUGGAUGAAGCUGCUACGGUGAGAGAAAACCCACUAUCGAUUCCACUCACCACUUACCUCCUUCCCUUAC | 0.0365 |
| AAGUCCUGUGCUACACAUCGUAUGUACCGAAUCAAACCCAAAUUUAAACCCCCAAAAAAGUAUUAUGUUACGCCGUUCGGAUCUGCACUU | -0.154 |
| CAAGUCCUGUGCUACACAUCGUAUGUACCGAAUCGGAAAAAAAGGAGGAAAAAGGAAAGUAUUAUGUUACGCCGUUCGGAUCUGCACUUC | -0.13 |
| GCAGGAAGUAAAAACAAAUGGAAAUGCUUCGGAUAGUGGCAGGGGUGGGGGUUGCUAAGGAAAGGGUGAAAUGGGAGUGGGUAAAGAGUU | 0.937 |
| CUCAAGUCCUGUGCUACACAUCGUAUGUACCGAAUCGGUUGGGGUUGGUUGGGAAAGUAUUAUGUUACGCCGUUCGGAUCUGCACUUCCA | -0.174 |

Series 4
Target: RNA binding protein fox-1 homolog 2, RRM domain, GST-SBP tag (RBFOX2, Homo sapiens, UniProt O43251-10, residues 100-194)
Method: RNA Bind-n-Seq
Molecule type: RNA
Sample: in vitro
Tested at: 365 nM
Setting: natural RNA segment, single round, ends assumed
Reference: no-protein control
Direction: higher = stronger binding
Constant ends, left off below: GGGAGUUCUACAGUCCGACGAUC … UGGAAUUCUCGGGUGCCAA
Target sequence (chain): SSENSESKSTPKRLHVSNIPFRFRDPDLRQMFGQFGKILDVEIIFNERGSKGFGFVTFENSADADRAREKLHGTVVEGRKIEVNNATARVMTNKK
| Oligonucleotide | RBNS enrichment (R) |
| --- | --- |
| GCUGUGCCUUCUCAGCAGCACUUUUGCUGUACAUACAAUGGAAAUAAAGACCUCAGCUAGAAACCUGCAAUUGACUCAGCUUUGUUUUGGUUUUUUAUUUGUGCAUACCC | 0.729 |
| AUCUUCAUUUUCUGACAGUCAAAGUGUGAAGGAACCCAGACUUCCCCGAGCCACGGUGUUCAGUCAGCCCACAGGAAUAUGCAAGACCCAUCUCCAAAAGUUUGUCUUUG | 0.363 |
| GUGCAAAUGUACUAUAGCAGUUCAUCUUCAUGUUCCAGCCUUACUCUGUGUUAAUACUGCUUCACAAUUCUGAAUGGCUGUGUUCUCUUAAAUAAAUGCAUUCAAAGAAA | 0.951 |
| GAGAUAGGAAGGUCAUUUCCAUGUAUGCAUAAUAAUCCUGCAAAGUACAGGUACUUUGUCUAAGAAACAUUGGAAGCAGGUUAAAUGUUUUGUAAACUUUGAAAUAUAUG | 0.729 |
| GGGGUUUGGUUUGGCUCCUCUGUGUGUGUCCGUAUCUUGUUCGGUGUCCUCGAGGUUGAGCUUCACUCCACUGCGGCAGAGGCAGCGUGCACACUCGGAUUUGCUACGUU | 0.952 |
| ACUUCCCUUUUUGCACUUAGAUAACUUCCUACUUCAACCCCCUCCUUUAUCUUGGAUUUCUAAAGUUUUUCCCCAAUAUUGGGAAUGGUGAGGGUGGGGAUGAGAGACUC | 0.371 |
| AGACGACUGUGGUGUGCAGUGGUGCUCUGGGAGUGGAGACUUCCUCUGUUCUCAGAGACUCACCCCCAGCCCUGACCCUAGAAUUUAGGGAUAGCCAGGAAGUUUCUAGU | 0.223 |
| AGAAUUUUGUUAAAGAAAUUCUAAAAUUUUUAAACACCUGCUCUCCACAAUAAAUCACAAACACUAAAAUAAAAUUACUUCCAUAUAAAUAUUAUUUUCUCUUUUGGUGU | 0.805 |
| AAGUGCCUGACAUUGAUUUGUGUUGAUUUCUAAGUCCAUGUAAUAAAUGAUACAUGUUUUCUAUGAUUAUAUUCUUGGGGGUUUUUGUUGUGGUGUUUGUCUUUUUGUUU | 2.03 |
| GCCAGCCAGUAUCACCAGACCUCUGCUGGACCUAGUCAAGAAGCCCAGUUAACAUGUAGAGCAUGGGCUCAAGAUGAAACCUUGUGUUUAUAGAACGGAUGUUUAGGUGA | 0.89 |
| UCACUUUUACAUUAUAAUAAAAAGUUUGGAAAAGUUACUUUUCUUGUUUUAUUUUUACAUCAUAUUCAUUCUGUCAGAAGUAAGCAUGAAAUUACUCAGUAUCCAUGUCA | 1.04 |
| ACACCCAAUACACACAAAACAAAAGUAACUCAAGAAUAGCCUGGGCUACAUAGCAAGAGCCUGUCUCAAAACAAACGAACCUAUGAAGAGCCAGGCAGUCUAUCUAUUUA | 0.691 |

A few entries again (series 2):
| Oligonucleotide | E-score |
| --- | --- |
| GGGTCTTA | 0.0614 |
| GCCAAGAA | -0.0803 |
| AGAATGCG | 0.163 |
| AGTGCCAG | -0.18 |
| AATTTTCT | -0.201 |
| CCCTTACA | -0.0156 |
| ACAAAGAT | -0.202 |
| GAGTTATC | -0.065 |
| AATCCGCG | 0.304 |
| AGAAATTC | -0.107 |
| ACTCACCC | -0.0243 |
